Measurements collected from several papers.
Protocols differ between the studies behind these lines. Values joined by “and” are separate records of one study, mostly repeats; a detail may differ. ± marks the error that the study gave.

Compound	target or system	test	test system	conditions	quantity	value
CCCCCCCCCC(=O)N[C@@H](Cc1c[nH]c2ccccc12)C(=O)N[C@H](CC(N)=O)C(=O)N[C@@H](CC(=O)O)C(=O)N[C@@H]1C(=O)NCC(=O)N[C@@H](CCCNC(=O)CCC(=O)N2Cc3ccccc3-c3c(nnn3CCC[C@H](NC(=O)CCCCC[N+]3=C(C=CC4=CC(=CC=C5N(C)c6ccccc6C5(C)C)CCC4)C(C)(C)c4ccccc43)C(=O)NCCCCNC(=O)CCC(=O)N3Cc4ccccc4-c4c(nnn4CCOCCOCCOCCNC(=O)CN4CCN(CC(=O)NCCNC(=O)c5cccc(O)c5O)CCN(CC(=O)NCCNC(=O)c5cccc(O)c5O)CCN(CC(=O)NCCNC(=O)c5cccc(O)c5O)CC4)-c4ccccc43)-c3ccccc32)C(=O)N[C@@H](CC(=O)O)C(=O)N[C@H](C)C(=O)N[C@@H](CC(=O)O)C(=O)NCC(=O)N[C@H](CO)C(=O)N[C@@H]([C@H](C)CC(=O)O)C(=O)N[C@@H](CC(=O)c2ccccc2N)C(=O)O[C@@H]1C	A549	cytotoxicity, WST-1	human cells	5 days, 5% FBS DMEM	EC50	64 µM
Cc1ccc2[nH]c3c(c2c1)CCCC3NCCc1ccccc1 (centres unmarked)	A549			50 µM, 23 h	non-viable cells	17.3 ± 14.7%
CC(C)NCC(O)COc1cccc2ccccc12 (centres unmarked)	A549	MTT		72 h	CC50	73.3 µM
COc1ccc([C@@]23Oc4cc(OC)cc(OC)c4[C@@]24N=C(C2CC2)N[C@@]4(O)[C@H](C(=O)N(C)OC)[C@H]3c2ccccc2)cc1	A549			concentration not given, 24 h	viability	50%
Cc1ccc2[nH]c3c(c2c1)CCC/C3=N\CCC/N=C1\CCCc2c1[nH]c1ccc(C)cc21	A549			50 µM, 23 h	non-viable cells	19.3 ± 10.1%
O=C(Nc1ccccc1)Nc1ccc(-c2ccc(C(=O)[C@@H]3CCC[C@H]3C(=O)O)cc2)cc1	human coronavirus OC43	virus-induced cell killing	MRC-5	screen	maximum inhibition	15.8%
CC(=O)N[C@@H](CCC(=O)O)C(=O)N[C@@H](CCC(N)=O)C(=O)N[C@@H](CCC(N)=O)C(=O)N[C@@H](CC(C)C)C(=O)N[C@@H](CCCCN)C(=O)N[C@@H](Cc1ccc(O)cc1)C(=O)N[C@@H](Cc1ccccc1)C(=O)N[C@@H](CC(C)C)C(=O)N[C@@H](CCC(=O)O)C(=O)N[C@@H](CCCNC(=N)N)C(=O)N[C@@H](Cc1ccccc1)C(=O)N[C@@H](C)C(=O)N[C@@H](CCC(=O)O)C(=O)N[C@@H](CCC(N)=O)C(=O)N[C@@H](CC(C)C)C(=O)N[C@@H](CCC(=O)O)C(=O)N[C@@H](CCC(N)=O)C(=O)N[C@@H](CC(C)C)C(=O)N[C@@H](Cc1ccccc1)C(=O)N[C@@H](Cc1ccc(O)cc1)C(=O)N[C@@H](CCC(N)=O)C(=O)N[C@@H](CO)C(=O)N[C@@H](CO)C(N)=O	A549			500 µM	cytotoxicity	not toxic
COc1ccccc1OCCNCC(O)COc1cccc2[nH]c3ccccc3c12 (centres unmarked)	A549	MTT		72 h	CC50	17.8 µM
CC(=O)Nc1cccc(-n2c(=O)n(C3CC3)c(=O)c3c(Nc4ccc(I)cc4F)n(C)c(=O)c(C)c32)c1	human coronavirus OC43	virus-induced cell killing	MRC-5	maximum over 10 doses	maximum inhibition	0%
Cc1ccc2[nH]c3c(c2c1)CCCC3NCCc1ccc(F)cc1 (centres unmarked)	A549			50 µM, 23 h	non-viable cells	13.8 ± 14.9%
CC(C)C[C@H](NC(=O)[C@H](C)NC(=O)[C@@H](NC(=O)[C@H](CCCNC(=N)N)NC(=O)[C@H](CC(C)C)NC(=O)[C@H](Cc1c[nH]c2ccccc12)NC(=O)[C@@H]1CCCN1C(=O)[C@@H](N)CCCCN)C(C)C)C(=O)N[C@@H](CS)C(=O)N1CCC[C@H]1C(=O)NCC(=O)O	A549	WST-1		4 µM, 24 h	viability	90.3% and 91.1% and 85.6%
